Measurements gathered from unrelated publications.
Compare with care: the assays were run in different laboratories. Values joined by “and” are separate records of one study, mostly repeats; a detail may differ. Numbers after ± are the reported error.

Cl.c1ccc(Oc2ccc(Nc3ccc4ncc(OCC5CCNCC5)nc4c3)cc2)cc1  mRNA level (MOLM-13; RT-qPCR, measured: Myc and Meis1; 0.3 and 1 µM, 3 days): decreased
C=CC(=O)Nc1cccc(Oc2nc(Nc3ccc(N4CCN(C)CC4)cc3)nc3ccoc23)c1  maximal inhibition (TMD8 RAC2 knock-out; calcium flux, FLIPR): > 60%
CCCCc1nc(Cl)c(CO)n1Cc1ccc(-c2ccccc2-c2nn[nH]n2)cc1  log2 fold change (human PBMC; RNA-seq, measured: SLC1A2 mRNA; 10 µg/mL, 24 h; reference: untreated control): 1.78
NS(=O)(=O)OC[C@@H]1C[C@@H](n2ccc3c(N[C@H]4CCc5ccccc54)ncnc32)C[C@@H]1O  EC50 (BRD4-HiBiT cells; BRD4 degradation rescue, inhibitor; 8 h, 50% degradation rescued, added: dBET6 500 nM): 0.0908 µM
Cc1cnc(NC2CCOCC2)nc1-n1cnc(C(=O)NC(CN)c2cc(F)cc(Cl)c2)c1 (stereo not shown)  S phase cells (MINO; flow cytometry; 1 µM, 72 h): 6.3%
CCn1cc(-c2cc(Cn3ccoc3=N)cc3c2CCN([C@@H](C)c2cc(OC)ccn2)C3=O)c(C(F)(F)F)n1  EC50 (AGS; cell growth, inhibitor; 120 h): > 30 µM
CCOC(=O)C1=C(C)NC2=C(C(=O)OC(c3ccc(OC)c(OC)c3)C2)C1c1cccc2ccccc12 (stereo not shown)  EC50 (J774.A1; cytotoxicity): > 20 µM
Cc1nn(-c2nc3ccccc3[nH]2)c(O)c1C(c1ccccc1C(=O)O)c1c(C)nn(-c2nc3ccccc3[nH]2)c1O  inhibition (THP1-Dual; IFN luciferase reporter; 20 µM, added: HT-DNA): 37.5% and 33.5% and 40.6%
CCOC(=O)C1=C(C)NC2=C(C(=O)OC(c3ccc(OC)c(OC)c3)C2)C1c1ccc(Br)cc1 (stereo not shown)  EC50 (J774.A1; cytotoxicity): > 20 µM
CCN(CC)C(=O)N1CCN(C)CC1  Z score (MDA-MB-231 BAX/BAK siRNA knockdown; cell viability, CellTiter-Glo; direction not given): 1.7
CCn1cc(-c2cc(Cn3ccnc3)cc3c2CCN([C@H](c2cc(OC)ccn2)C2CC2)C3=O)c(C(F)(F)F)n1  EC50 (HCC70; cell growth, inhibitor; 120 h): > 30 µM
Cn1cc(Nc2nccc(-c3ccc4c(c3)CN(C3COC3)CC[C@H]4NC(=O)c3cn(C(C)(C)C)nn3)n2)cn1  number of downregulated genes (human B cells; 100 nM, 64 h, stimulation-downregulated genes, added: CpG ODN2006): 0
CN(C)c1ncnc2c1ncn2[C@@H]1O[C@H](CO)[C@@H](O)[C@H]1O  AP-TGFα release (mock-transfected cells; TGFα shedding, agonist; 10 µM; reference: unstimulated vehicle control): 12.4% and 11.7% and 9.29%
CCN1CCN(Cc2ccc(NC(=O)c3ccc(C)c(-c4ccc5nc(NC(=O)C6CC6)cn5c4)c3)cc2C(F)(F)F)CC1  pSTAT5 level (persistent SET-2; Western blot; 1 µM, 4 h): decreased
Clc1nc(NCc2ccco2)c2[nH]cnc2n1  ΔPSI (FD iPSC-derived cardiomyocytes; alternative splicing, RNA-seq, measured: DGKA exon chr12:55940081-55940170; unit not given; reference: DMSO minus compound): -0.214
COc1cnc2cccc(N3CCc4c(cc(Cn5ccnc5C)cc4-c4cn(C)nc4C(F)(F)F)C3=O)c2c1  EC50 (YD-10B; cell growth, inhibitor; 120 h): > 30 µM
CSc1cc(Oc2ccnc3[nH]c(=O)cnc23)ccc1NC(=O)Nc1cc(C(C)(C)C)nn1-c1ccccc1  phospho-S6 ratio (patient-derived cell clone; RPPA, measured: phospho ribosomal protein S6; human; 1 µM, 4 h; reference: DMSO): 0.4
Nc1ncnc2c1ncn2[C@@H]1O[C@H](CO)[C@@H](O)[C@H]1O  viability (activated human T cells; 1 µM, 72 h; higher = more viable cells): 84.2 a.u. and 87.9 a.u. and 83.5 a.u.
COc1ccc(NC(=S)N/N=C/c2cccc3cc4ccccc4nc23)cc1  late apoptotic cells (HeLa; annexin V/PI; concentration not given, 48 h, dosed at IC25, added: N-acetylcysteine): 7.7%
Cc1nn(-c2nc3c(F)cc(F)cc3s2)c(O)c1C(c1ccc(C(F)(F)F)cc1)c1c(C)nn(-c2nc3c(F)cc(F)cc3s2)c1O  phospho-TBK1/TBK1 ratio (RAW-ISG; TBK1 phosphorylation, western blot; 10 µM, added: poly(I:C); reference: DMSO): 0.958
C[C@H]1Oc2cc(cnc2N)-c2c(nn(C)c2C#N)CN(C)C(=O)c2ccc(F)cc21  Emax (Aska-SS (ALK exon 2-17 deletion); cell viability): 77.7%
Nc1cccc2c1CN(C1CCC(=O)NC1=O)C2=O (stereo not shown)  EC50 (BRD4-HiBiT cells; BRD4 degradation rescue, inhibitor; 8 h, added: dBET6 500 nM): 10.6 µM
C#CCOc1cc(C(=O)Nc2cc(OCCCN)c3ccccc3n2)nc(C(=O)Nc2cc(OCCCN)c3ccccc3n2)c1  selectivity ratio (HT-1080; cell viability, CellTiter-Glo; 72 h; reference: IC50 HT-1080 over WI-38): 1.3
Cc1nn(-c2nc3c(F)cc(F)cc3s2)c(O)c1C(c1ccccc1C(F)(F)F)c1c(C)nn(-c2nc3c(F)cc(F)cc3s2)c1O  inhibition (THP1-Dual; IFN luciferase reporter; 5 µM, added: HT-DNA): -9.17% and 6.46% and 7.75% and -11.5% and 1.78% and -9.21%
O=c1[nH]nc(OCCCc2ccc(Cl)cc2)c(NCc2cccnc2)c1Br  normalized enrichment score (HEK-293T; RNA-seq GSEA, measured: HALLMARK_INTERFERON_ALPHA_RESPONSE; concentration not given; direction not given): -1.74
CC(C)(c1ccc(O)cc1)c1ccc(O)cc1  spheroid area increase (HepG2 spheroids; planimetry; 10 µM, 0 to 24 h; reference: mean area of 72 h spheroids): 121%
CC(C)(C)c1ccc(C(O)CCCN2CCC(C(O)(c3ccccc3)c3ccccc3)CC2)cc1 (stereo not shown)  Z score (MDA-MB-231 BAX/BAK siRNA knockdown; cell viability, CellTiter-Glo; direction not given): -1.14
Nc1cccc2c1C(=O)N(C1CCC(=O)NC1=O)C2=O (stereo not shown)  surface marker level (RPMI-8226; flow cytometry, measured: CD98; concentration not given; reference: comparator compound alone): 248%
COC[C@H](NC(=O)c1cnc(C)s1)C(=O)N[C@@H](COC)C(=O)N[C@@H](Cc1ccccc1)C(=O)[C@@]1(C)CO1  EC50 (BRD4-HiBiT cells; BRD4 degradation rescue, inhibitor; 24 h, 50% degradation rescued, added: dBET6 500 nM): 0.023 µM
C[C@H](Nc1ccc2c(c1)OCCn1cc(N3C(=O)OC[C@H]3C(F)F)nc1-2)C(N)=O  Hill coefficient GR curve (MKN-1; CellTiter-Glo; 120 h): 0.406
O=C(COP(=O)(O)O)[C@@H](O)[C@H](O)[C@H](O)COP(=O)(O)O  glucose consumption (HepG2 control sgRNA; concentration not given): 4.58 mM and 4.62 mM
CC/C(=N\NC(=O)NCc1cccc(O)c1)c1ccc(O)c(C)c1O  relative cell number (SK-OV-3; ATP; 10 µM, 4 days, 3D gellan gum culture; reference: untreated): 274%
COC(=O)C1=C(C)NC2=C(C(=O)OC(c3ccc(OC)c(OC)c3)C2)C1c1ccccc1Cl (stereo not shown)  EC50 (J774.A1; cytotoxicity): > 20 µM
Cn1c(Nc2nc3ccc(C(F)(F)F)cc3s2)nc2cc(C(=O)NCCOCCO)ccc21  fold change (SH-SY5Y; RNA-seq, measured: IQGAP2 mRNA; 5 µM, 5 h; reference: untreated cells): 1.58
CC(C)=CCNc1ncnc2c1ncn2[C@@H]1O[C@H](CO)[C@@H](O)[C@H]1O  AP-TGFα release (mock-transfected cells; TGFα shedding, agonist; 1 µM; reference: unstimulated vehicle control): 2.29% and 1.76% and 0.06%
CC(C)NCC(O)c1ccc(O)c(O)c1 (stereo not shown)  sarcomere length (mouse ventricular cardiomyocytes; dose not given, 0.263 s): 1.8 µm
COc1ccc(-n2nc(C(C)=O)s/c2=N\N=C(/C)c2ccc(NC(=O)c3ccccc3)cc2)cc1  viability (MCF7; 0.312 µM): 5%
Cc1[nH]c(/C=C2\C(=O)Nc3ccc(S(=O)(=O)N(C)c4cccc(Cl)c4)cc32)c(C)c1C(=O)N1CCN(C)CC1  maximal sensitivity ratio (RMS cell lines; cell growth; reference: RMS over control lines): 2 fold
Cn1cc(-c2ccc(-c3cncc(Cl)c3N3CCC4(CCNC4=O)CC3)cc2)cn1  fold change in expression (COLO 205; microarray, measured: PLAUR; concentration not given, 6 h, gene set uPAR; reference: untreated cells): 1.71
CCOC(=O)C1=C(C)NC2=C(C(=O)OC(c3cc(OC)c(OC)c(OC)c3)C2)C1c1ccccc1Cl (mixture of isomers)  EC50 (J774.A1; cytotoxicity): > 20 µM
Cc1cc(Nc2ncc(Cl)c(Nc3ccccc3S(=O)(=O)C(C)C)n2)c(OC(C)C)cc1C1CCNCC1  log2 fold change (CLB-BAR; phosphoproteomics LC-MS/MS, measured: HSF1 phosphorylation; 200 nM, 60 min; reference: untreated): -3.71
O=C(C[C@@H](C(F)F)n1ccc(F)n1)N1CCC(O)(Cn2cnc3c(cnn3-c3ccc(F)cc3)c2=O)CC1  G1 phase cells (CHP-212 resistant; PI flow cytometry; 1 µM, 24 h): 75.6%
N#C/C(=C\c1c[nH]nc1-c1ccc(Cl)c(Cl)c1)C(=O)O  mRNA level (LX-2; qPCR, measured: PAI1; 10 µM, hepatic stellate cell activation, added: TGFβ; reference: untreated): decreased
CCOC(=O)C1=C(C)NC2=C(C(=O)OC(c3ccc(OC)c(OC)c3)C2)C1c1ccc(C)cc1 (mixture of isomers)  EC50 (J774.A1; cytotoxicity): > 20 µM
N#CSCc1cc(=O)oc2cc(O)ccc12  GI50 (WiDr, multidrug-resistant; sulforhodamine B): 4 ± 0.3 µM
Nc1ncnc2[nH]cnc12  viability (MDA-MB-231 BAX/BAK siRNA knockdown; CellTiter-Glo; concentration not given; reference: normalised luminescence): 52% and 56.8%
O=P(O)(O)C(O)(Cn1ccnc1)P(=O)(O)O  viability (hFOB 1.19; AlamarBlue; 3.8 µM, 48 h; reference: control): 100 ± 2%
O=C(NN=Cc1ccc(Cl)cc1)C1CC(=O)N(c2ccc(F)cc2F)C1 (stereo not shown)  cell migration (PPC-1; wound healing; 10 µM, 12 h): inhibited
CN(C)CCOc1cc(NC(=O)c2cc(Cl)cc(C(=O)Nc3cc(OCCN(C)C)c4ccccc4n3)n2)nc2ccccc12  selectivity ratio (HT-1080; cell viability, CellTiter-Glo; 72 h; reference: IC50 HT-1080 over WI-38): 1.8
CCCCC[C@H](O)/C=C/[C@H]1C(=O)C[C@H](O)[C@@H]1C/C=C\CCCC(=O)O  HTRF cAMP signal (HEK293-A2AR cells, SLCO2A1 knockout; HTRF cAMP; 5 µM): 317 a.u. and 322 a.u. and 320 a.u.
O=C(/C=C/C=C/C=C/C1CCCCC1)NC1=C[C@@](O)(/C=C/C=C/C=C/C(=O)NC2=C(O)CCC2=O)[C@@H]2O[C@@H]2C1=O  GI50 (MKN-1; cell growth, CellTiter-Glo; 78 h): 8.87 µM
CCCN1CCN(c2ccc3[nH]c(-c4ccc5[nH]c(-c6ccc(C(F)(F)F)cc6)nc5c4)nc3c2)CC1  growth percent (MDA-MB-435; SRB; 10 µM, 48 h): -89%
